Experimental data collected from several papers.
Every numbered part comes from another study and shows a few of its results, in no order. Positions count from the first letter of the parent shown.

Block 1
Target: RNA binding protein fox-1 homolog 2, RRM domain, GST-SBP tag (RBFOX2, Homo sapiens, UniProt O43251-10, residues 100-194)
Technique: RNA Bind-n-Seq
Form: RNA
Sample: in vitro
Concentration: 365 nM
Setting: natural RNA segment, single round, ends assumed
Relative to: no-protein control
Direction: higher = stronger binding
All sequences stand within: GGGAGUUCUACAGUCCGACGAUC … UGGAAUUCUCGGGUGCCAA
Target sequence (chain): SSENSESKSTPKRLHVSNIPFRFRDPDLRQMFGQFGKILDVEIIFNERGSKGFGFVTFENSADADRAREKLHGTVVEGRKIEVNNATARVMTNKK
| Sequence | RBNS enrichment (R) |
| --- | --- |
| CACUCCUUCUUCGUUGUCGAUGUUGUACUCAGCCUAUGGUAGGAGAGGAUGUGGCUUUGCAACUCAGAUCAGACAAAGAAUUUUUGAAUUGGCAGGCUUUAGCCUACAAA | 0.619 |
| UGCCGCCUCAGCCUGGCGCAGCUGUCAGCCUUCUGAGCACCCAGCGAGGAGGGGCGGGGGCAGGGGCUGCAGCCCCCAGCGCUGCCUUUGCGGAUUCUGUUUUUGAGCCG | 0.383 |
| ACACUACCCGAGAUGUCCAGACGUGCUUGGUAGGAGGCUACUCCCUAGGUGCUGCCUUUCUAAGUUCUGACGAGGAGCAGCCCUCAGUGGCUUGUGUACAGAUUGCUCUA | 0.568 |
| ACACAUAAAGACAUUAGCUGAAAAAAUAGAGUGAAAAUCAACUAUUUUUUACUCCCGCUAAUUUCAAUCAAUCGUUUUCAAAAGCGCACGAGAUUCACUCAUUGGAUUUA | 0.59 |
| AUUAAUCCUACUCCUUAAAGUGAUUUUUUUGGGAUUAUACAAAUUCCUUUUUAUAUAAAAGUAUAUUGUUUAAAACAGUAGCUAUAGCCAUUAACCAAAGGACAGAUGUG | 0.595 |
| CUGUAGUUGGACCAAAAAAACAAAUGAGCCGUUGGACCAUUUGAGCAGUCAGUUUCUGGUCCUUAGAUGUAUUCUAAGCAGUGUAAGUGUCUGAUUGUACCCUGGUGGCA | 0.844 |
| GACUGGUCUCGAACUCCUGGCCUCAAGCCAUCUUCCCGCCUCAGCCUCUCAAAUAGCUGGGCUUACAGGCAUGAGCCACCACACCUGGCCAGGAUUUGGUUGUUUAAAUA | 0.351 |
| UGAAUUCUAUGUGAAAUGUGUUAGGAUAAGUUUGCUCUGUCUCUAGAGUUCAAUGUAGAAGAUAAUUAAGAGGUAAAAUAUGAAGCUUAUCAUACACUAAAGGAGAAUAU | 0.948 |

Block 2
Target: CCNB1, cyclin fold, Cln2 fusion (human)
Technique: yeast growth competition, sequencing
Sample: yeast
Setting: weak parent motif
Relative to: not given
Direction: higher = stronger binding
Starting sequence: ANKRD17 docking peptide (human); PSVRRQLFVTVVK
| Variant | normalised enrichment score |
| --- | --- |
| L7A | 1.52 |
| P1A | 1.09 |
| F8A | 1.23 |
| F8L | 0.206 |
| T10A | 1.72 |
| R5K F8L | 0.509 |
| V12A | 0.809 |
| V3A | 0.561 |
| K13A | 0.882 |
| R5A L7A | 0.403 |

Block 3
Target: Interferon regulatory factor 7, full length, phosphomimetic (IRF7, Homo sapiens, UniProt Q92985, residues 1-503, S471D/S472D/S475D/S476D/S477D/S483D/S484D/S487D)
UniProt Q92985, sequence (whole entry, unmodified, looked up): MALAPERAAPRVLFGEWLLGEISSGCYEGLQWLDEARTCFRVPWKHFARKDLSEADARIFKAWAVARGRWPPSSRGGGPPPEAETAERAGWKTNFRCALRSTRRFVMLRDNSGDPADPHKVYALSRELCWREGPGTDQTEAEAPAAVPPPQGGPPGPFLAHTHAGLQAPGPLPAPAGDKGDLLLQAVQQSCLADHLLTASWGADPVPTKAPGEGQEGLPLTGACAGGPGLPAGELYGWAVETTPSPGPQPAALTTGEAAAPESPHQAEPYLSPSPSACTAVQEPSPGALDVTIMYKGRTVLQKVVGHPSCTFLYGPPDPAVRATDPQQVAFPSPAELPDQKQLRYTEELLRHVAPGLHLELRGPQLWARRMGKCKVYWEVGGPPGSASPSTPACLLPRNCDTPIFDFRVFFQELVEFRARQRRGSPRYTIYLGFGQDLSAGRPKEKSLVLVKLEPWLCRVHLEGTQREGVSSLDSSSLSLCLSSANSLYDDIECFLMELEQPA
Technique: protein-binding microarray
Form: double-stranded DNA, one strand shown
Sample: in vitro
Concentration: 2200 nM top
Setting: 60-bp whole probe
With: salmon DNA 0.4 mg/ml
Relative to: random background probes
Direction: higher = stronger binding
All sequences stand within: GCCTAGCAC … GTCTTGATTCGCTTGACGCTGCTG
| Sequence | fitted relative affinity [z-score] |
| --- | --- |
| TTAGAAGTGGGGTATCGATTAGTGCTA | 0.0872 |
| GGGCAGGAAACGGAGGACACGTGCTAG | -1.09 |
| TTAGGACTGGGGTATCGGTGAGTGCTA | -0.65 |
| CCCGTTCACCCACGACCCTTGTGCTAG | 2.33 |
| AAACAAATAAGCCTTACTTGGTGCTAG | -0.544 |
| AAATTCTATTCTCTCAATTTGTGCTAG | 1.32 |
| TTAGGTCTCCTTCTACTTTAGTGCTAG | 1.01 |
| TTAGATTTAGGGTATCGATTAGTGCTA | -0.372 |
| AGTGTCTCCATCAGAGGAGAGTGCTAG | -0.364 |
| TTTGATTTCGGGTTTCGATTAGTGCTA | 6.81 |
| GACGATCTCAGTATCGAGAGGTGCTAG | -0.191 |
| TTAGATGTCGGGACTGGATTAGTGCTA | -0.00558 |
| TTTGGTCTCCTTATCCTTTAGTGCTAG | 1.66 |
| TCATAAACTAGAAACTGAACTGTGCTA | -0.703 |
| TCAAAGATTTTTATCAAACTGTGCTAG | -0.94 |
| TTAGCTTTCAGTCTCGATTAGTGCTAG | 1.96 |
| TTAGATATCGACTATCGGTTAGTGCTA | 0.395 |
| GAGGGTCTCCTACTGCTGACGTGCTAG | -0.137 |
| GACGTTATCGGGACTGGAGACGTGCTA | 0.061 |

Block 4
Target: Centromere-binding protein 1, full length, N-terminal tag (CBF1, Saccharomyces cerevisiae, UniProt P17106, residues 1-351)
UniProt P17106, sequence (whole entry, looked up): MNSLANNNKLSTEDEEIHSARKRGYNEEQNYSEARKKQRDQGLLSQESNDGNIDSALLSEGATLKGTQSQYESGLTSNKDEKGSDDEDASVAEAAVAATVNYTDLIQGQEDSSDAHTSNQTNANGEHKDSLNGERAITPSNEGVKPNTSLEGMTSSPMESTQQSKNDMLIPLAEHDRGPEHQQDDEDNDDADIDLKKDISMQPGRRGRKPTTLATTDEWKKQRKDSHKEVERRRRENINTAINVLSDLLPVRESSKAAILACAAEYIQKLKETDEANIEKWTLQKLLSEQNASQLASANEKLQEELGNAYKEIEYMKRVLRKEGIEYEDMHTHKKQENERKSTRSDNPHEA
Technique: protein-binding microarray
Form: double-stranded DNA, one strand shown
Sample: in vitro
Concentration: 0.8 µM
Setting: whole 60-bp probe, no competitor
Direction: higher = stronger binding
All sequences stand within: … GTCTTGATTCGCTTGACGCTGCTG
| Sequence | fluorescence intensity [a.u.] |
| --- | --- |
| GAAATTTGCAAACATCATGCTTTGATCTTTGAATAG | 559 |
| CCTAACTACTATAACCACGTGTTATAGCTTCGTACA | 5440 |
| TGTACGAAGCTATCTGACCACCTTATAGTAGTTAGG | 499 |
| CTACCTGTAGCTACCATCAGCAATCCATGGTGCTTC | 503 |
| CTATGGATTGATTTTCACATGTATCGTTTATGATTC | 665 |
| GAACTACTGGAATGTCTGATGTCTTCGCTTATATAG | 544 |
| GAAATACTGTTTTTATGCGTGCGTACGCAACAGTAG | 518 |
| CTACCGTTAAACTGTTTCACGTTATCAAGATTATTC | 869 |
| CTACTAAACGGTTGTCAGGAGAAAAATTGAATGTTC | 551 |
| TGTACGAAGCTATATGGCGTGGGTATAGTAGTTAGG | 511 |
| GAAGGGTTTATGCAACACGCGATATATAAGCATTAG | 640 |
| CTACTCTTTAGCAATGGTGACATATAGATCTCATTC | 511 |
| CTAGCAACGTTGCTCCTCACCTGCATCTTGTAATTC | 542 |
| CTACCCACCATCGACCACGTTTCGTCACCGGTCTTC | 563 |
| CTACTTTGCCAACGTGTTGTCTTTGACGTACGTTTC | 586 |
| GAACATTAAACAATAAACGTGGGTGATGAAGACTAG | 595 |
| GAACACTTTTTATGCACGTGCATCGTACAATTATAG | 10900 |

For quick reference, copied from above (block 3):
| Sequence | fitted relative affinity [z-score] |
| --- | --- |
| TTAGCTTTCAGTCTCGATTAGTGCTAG | 1.96 |
| TTAGATATCGACTATCGGTTAGTGCTA | 0.395 |
| GAGGGTCTCCTACTGCTGACGTGCTAG | -0.137 |
| GACGTTATCGGGACTGGAGACGTGCTA | 0.061 |
